# Measured values from different studies.
# Every numbered part comes from another study and shows a few of its results, in no order.

# Series 1 — method: protein binding microarray; molecule type: double-stranded DNA, one strand shown; sample: in vitro; concentration: not given; relative to: not given; direction: higher = stronger binding
# Target: Histone acetyltransferase KAT6A, winged helix 2, GST fusion (KAT6A, Homo sapiens, UniProt Q92794, residues 85-181)
# Notes: 8-mer, flanks averaged, mean of 2 arrays, mostly near background
# Residues (chain): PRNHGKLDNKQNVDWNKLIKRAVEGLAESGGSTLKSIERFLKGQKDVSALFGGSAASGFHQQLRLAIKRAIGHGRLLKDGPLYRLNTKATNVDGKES
Strand,E-score
AGGACAAA,-0.00817
GCTTTCAA,0.119
AGAGACAC,-0.122
AGGGGCGC,0.00829
CGTTGTTA,-0.0151
ACCAAGCT,-0.0441
TACTTACA,-0.147
CATGGGGC,-0.0235
ATTGCAAC,-0.0361
ACTAATGC,0.111
CCCAAACA,0.168
ACTTGGCG,-0.0664
AGTAAGCG,0.12
TACGACGA,-0.1
AGTTTTAT,0.119
AGTACGGG,-0.0998
CTAGCACC,0.166
ACAGCACG,0.0702
TAACGTTA,-0.161
TAGCTCAA,-0.00274
CACTGGGA,0.0249
CAAGGTGC,0.00816
GTGGACAA,0.0242
CTAAATGC,-0.0775
CCTAAGTC,-0.129

# Series 2 — method: protein-binding microarray; molecule type: double-stranded DNA, one strand shown; sample: in vitro; concentration: 940 nM top; notes: 60-bp whole probe; added: salmon DNA 0.4 mg/ml; relative to: random background probes; direction: higher = stronger binding; shared flanks, not repeated: GCCTAGCAC … GTCTTGATTCGCTTGACGCTGCTG
# Target: Interferon regulatory factor 5, full length, phosphomimetic (IRF5, Homo sapiens, UniProt Q13568-2, residues 1-514, S451D/S453D/S456D/S462D)
Strand,fitted relative affinity [z-score]
GACGGTATCCTTTTCTTGACGTGCTAG,0.796
TTAAGACTGGGGTTTCGGTTAGTGCTA,6.18
TTAGCACTGGACTATCGGTTAGTGCTA,-0.201
GAACCTTCAGCTCTAGGTTCGTGCTAG,0.189
CAATATTAGAGTCTCAACCCGTGCTAG,0.1
TTAGGTAGCCTTCTCCTTTAGTGCTAG,-0.353
ATTGCTTTCTCTTTCATTGCGTGCTAG,2.45
TCATCTCCCAGACTGGAACTGTGCTAG,0.347
TTACGTCTCGGTATCGGTTAGTGCTAG,7.49
GACGGTTTCGGTATCGGAACGTGCTAG,13.5
TTAGGTATCGGTTTCGGTAAGTGCTAG,13.6
TTAGGACTGGGGACGGGGTTAGTGCTA,0.886
TTAGGTATCGACAATCGGTTAGTGCTA,4.55
TTAGAACTGAGACTGGATCAGTGCTAG,-0.298
GACGGACTGGGGGATCGGGACGTGCTA,0.299
TACGGTATCGGTATCGGGACGTGCTAG,8.36
TTAGGTTGCGGACTGGGTTAGTGCTAG,-0.0175
GTCACATTGCACAATCTTAATGTGCTA,0.0505
TTAGATTTCAGGATCGATTAGTGCTAG,0.456

# Series 3 — method: RNA Bind-n-Seq; molecule type: RNA; sample: in vitro; concentration: 100 nM; relative to: input RNA pool; direction: higher = stronger binding
# Target: RING finger protein unkempt homolog, zinc fingers 1-6, SBP tag (UNK, Homo sapiens, UniProt Q9C0B0, residues 30-357)
# Chain of UniProt Q9C0B0 (30-357, looked up): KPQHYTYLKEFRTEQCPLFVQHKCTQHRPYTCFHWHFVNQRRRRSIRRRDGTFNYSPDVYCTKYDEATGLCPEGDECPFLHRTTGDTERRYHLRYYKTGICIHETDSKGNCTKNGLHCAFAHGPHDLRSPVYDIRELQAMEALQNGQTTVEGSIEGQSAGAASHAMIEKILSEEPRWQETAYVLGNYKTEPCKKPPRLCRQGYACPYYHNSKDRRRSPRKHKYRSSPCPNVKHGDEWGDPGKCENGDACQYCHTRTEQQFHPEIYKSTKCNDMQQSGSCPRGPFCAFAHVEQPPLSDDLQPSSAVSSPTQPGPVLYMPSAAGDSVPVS
# Notes: RNA with constant flanks, vertebrate orthologous sites, ends assumed
Strand,bound/input enrichment
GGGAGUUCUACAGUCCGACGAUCAAUCAUGCUGCUUUUACCUGCCUCAAUGAGGUAACAUCUCCCCUGACGUUUGGUUGGCACUAGAGCCCAUCACACCUAAUAUGUUUUUCCACAUUUCAUCUCCUUACGCUCACACUCAUCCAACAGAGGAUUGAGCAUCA,1.61 ratio
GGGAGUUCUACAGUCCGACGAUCCCUGAAGCUGUGUGUUUGGCUGCACCUGCAUAAGCUGCUACAAAUAGAAUAAAGAAUUCAUAGCCUGUAUCUAUCAUUAGAUGCAUGGAAAACUGGGCUUUGCACACAAUGGGUUUGAAGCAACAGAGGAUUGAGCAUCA,1.27 ratio
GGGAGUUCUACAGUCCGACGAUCCGGCCAACUCCAUCAUCGGACGUGCCGCUCACAUCGCCGUGCUCGACUCGGAGAUAUUUCUGGAGAAGUUUUUCCUCGUCGCAGGCCUGAAGUAUUUCCGAUAGGUUGGUGUGGCAGCCACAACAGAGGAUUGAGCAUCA,0.284 ratio
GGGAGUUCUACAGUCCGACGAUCAAAUUUAUUUCAUGCCCUGGACUCCCUACCGUACUGAUACUUUAAUAGAAUAUGCUUCUUUAGAAGAUUUCCAAAACAGCCGUCAGACGACAACAUACAAACUUCCAAAUCGAGUCGAUGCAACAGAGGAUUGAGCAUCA,1.29 ratio
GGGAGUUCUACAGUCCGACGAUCAAGAAAUGCUGGCUGCAAACCCUCAGGAUCGACCAGAUGCUUUUGAACUAGAACUCAGAUUAGUACAAAUUGCAUUUAAAGAUAGCAGCUGGGAAACGUGACACAUACAUUGUUCGCAGACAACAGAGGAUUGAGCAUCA,0.414 ratio
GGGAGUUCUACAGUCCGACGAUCUCAUUGUACUGCCAGCAUCAUCCUAGUGUUAAACCAGCCGCUGUGAUAACUAGUGUGUGCUAGUAGAAUUAUUUACUAUUAUUACCUUUUAAACUAUGCGCUUUGCCCAAUACUCGAAAGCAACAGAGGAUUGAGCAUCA,2.54 ratio
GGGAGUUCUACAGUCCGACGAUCUGGGGGCAUACUCUAUGGAGCUGCUGGACACUUAGCAUUGUUUGAUUUAGAACCUUGACAUACUAGGUAGGCUUGUGGGUUUGUUUGUUUUUUUUAAUUUAAUGAUAUUAAGACUUAAUUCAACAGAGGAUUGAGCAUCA,1.51 ratio
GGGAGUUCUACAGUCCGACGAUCAUUCAAACCUGUGGUGCCAUGGCCUCAUGUGGAAGGAGUAGAAGUGGAUUUAGAGUCUAUUAGAAGAAAAAACAAGGCCAAAAAAGAACAGGAGCACCAUGCUGGAGGAGAUUCCCAAAACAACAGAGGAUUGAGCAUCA,0.507 ratio
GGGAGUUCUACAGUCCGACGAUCUACAAAUGUGUAUCGAAUGCUUGGUGUAACAUUAAACCAUCAUUUAGAAUAGAUGUCGAUUUGUUAUAAUUAAGCUACAAAUAGGUUUCUUUAAACCAGAGAUGCACUGCCCUUGUCUGACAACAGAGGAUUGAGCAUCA,0.268 ratio
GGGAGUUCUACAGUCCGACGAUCGAACCCCAGUCUGUAUGUACAUUAUUCACAUUCCUCUCUGUUGUGUUUGGGGAAGACAUUUUAGCCUUUUUUAAAGUUACUGAUUUAAUUUCAUAUUAUUUGGUUGCAUGAAAUUGCCCUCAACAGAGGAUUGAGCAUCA,1.1 ratio
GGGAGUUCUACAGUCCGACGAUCUAUUGUACUUGGAUAAGUCAUCUUAGUUUUAAUCUAGUCACAGUGAUAAGUAGCCUGUGCUGGUAGAAUCGUUUACUCUUACCUUUUAAAUUAUCUUCUCUGUCUGAUACCUGAAACCAACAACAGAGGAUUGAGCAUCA,0.962 ratio

# Series 4 — method: RNA Bind-n-Seq; molecule type: RNA; sample: in vitro; concentration: 1 µM; notes: whole 134-nt RNA, ends assumed; added: 150 mM KCl; relative to: input library; direction: higher = stronger binding
# Target: Ras GTPase-activating protein-binding protein 1, C-terminal RGG region (G3BP1, Homo sapiens, UniProt Q13283)
# Chain of UniProt Q13283 (whole entry, looked up): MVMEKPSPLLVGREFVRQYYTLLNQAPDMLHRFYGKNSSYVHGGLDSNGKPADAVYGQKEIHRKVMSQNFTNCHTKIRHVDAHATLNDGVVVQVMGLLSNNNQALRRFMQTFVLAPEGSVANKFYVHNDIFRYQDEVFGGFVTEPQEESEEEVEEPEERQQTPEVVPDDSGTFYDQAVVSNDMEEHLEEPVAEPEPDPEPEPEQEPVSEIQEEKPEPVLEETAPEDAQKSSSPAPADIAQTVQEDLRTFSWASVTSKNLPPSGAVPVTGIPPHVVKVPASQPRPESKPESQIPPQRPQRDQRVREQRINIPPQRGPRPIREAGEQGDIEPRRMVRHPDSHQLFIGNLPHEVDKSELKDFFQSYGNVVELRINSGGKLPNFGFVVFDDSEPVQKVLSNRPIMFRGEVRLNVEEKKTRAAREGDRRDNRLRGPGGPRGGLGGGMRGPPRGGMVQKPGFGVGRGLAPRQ
Strand,log2 enrichment
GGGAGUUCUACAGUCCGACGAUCUAACUUCAGAGGAGGAUCUGAUGGAUAUGGCAGUGGACGUGGAUUUGGGGAUGGCUAUAAUGGGUAUGGAGGAGGACCUGGAGGUGGCAAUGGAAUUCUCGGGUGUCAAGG,-1.86
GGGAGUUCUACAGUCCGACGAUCGUCCUGUGCUACACAUCGUAUGUACCGAAUCGGAAAAAGGGGAAAAAGGGGAAAAAGGGAAAGUAUUAUGUUACGCCGUUCGGAUCUGCAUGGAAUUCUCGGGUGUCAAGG,-0.482
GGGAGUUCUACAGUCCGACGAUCAGUCCUGUGCUACACAUCGUAUGUACCGAAUCGGGUUUUGGGGUUUUGGGGUUUUGGAAAGUAUUAUGUUACGCCGUUCGGAUCUGCACUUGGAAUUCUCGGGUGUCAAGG,-0.61
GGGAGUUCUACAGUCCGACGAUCUUCGAAGAGGUUGUGUACCAGGCCAUGGGUGAGUGCCCGGGCCACCGAGGCCACGUGCCUCCACGAGGGGCUGCCUAUGCCCCACCCUGGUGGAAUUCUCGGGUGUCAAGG,-0.953
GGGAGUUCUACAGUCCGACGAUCGUCCUGUGCUACACAUCGUAUGUACCGAAUCGUGUGUGUGUGUGUGUGUGUGUGUGUGUAAAGUAUUAUGUUACGCCGUUCGGAUCUGCAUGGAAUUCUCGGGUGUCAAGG,1.5
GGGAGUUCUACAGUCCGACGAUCCUCAAGUCCUGUGCUACACAUCGUAUGUACCGAAUCGGGGCGGGCGGGCGGGGAAAGUAUUAUGUUACGCCGUUCGGAUCUGCACUUCCAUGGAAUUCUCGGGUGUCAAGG,2.62
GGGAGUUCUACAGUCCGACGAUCAAGUCCUGUGCUACACAUCGUAUGUACCGAAUCGGGGUGGGGUUUGGGGUUUGGGGAAAGUAUUAUGUUACGCCGUUCGGAUCUGCACUUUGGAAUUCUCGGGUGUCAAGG,2.51
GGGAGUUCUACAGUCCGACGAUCUCAAGUCCUGUGCUACACAUCGUAUGUACCGAAUCGGAAAAAAAGGAGGAAAGGAAAGUAUUAUGUUACGCCGUUCGGAUCUGCACUUCCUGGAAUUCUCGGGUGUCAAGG,-1.5
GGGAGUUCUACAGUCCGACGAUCCCACCAUGACCCCUGACGGUCUGGCUGUGACCCCAACGCCGGUGCCCGUGGUCGGGAGCCAGAUGACCAGACAAGCCCGGCGCCUCUACGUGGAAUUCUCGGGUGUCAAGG,-0.792
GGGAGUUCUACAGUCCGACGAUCACCAUGCAGGUGGGCAUCUUUGGGAAGUGGGGCAAGGGGGGGAUAGGGAGGGGGGUAACACUUUGGGAACAGGUGGUCCAAGGUCGUUUCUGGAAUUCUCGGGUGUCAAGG,2.12
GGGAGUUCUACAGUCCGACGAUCCACAGACAACACGCACCCACACAGACACAGAGGGAAGGGGUUGGGAUGGGGACAGGGUGCACAGCAGGGCGGGAAAGGACCCCAGCCCCUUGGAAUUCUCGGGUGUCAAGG,-0.325
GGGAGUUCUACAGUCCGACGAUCCUCAAGUCCUGUGCUACACAUCGUAUGUACCGAAUCGGUUUGGUGGUUUUUGGAAAGUAUUAUGUUACGCCGUUCGGAUCUGCACUUCCAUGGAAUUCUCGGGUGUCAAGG,-0.763
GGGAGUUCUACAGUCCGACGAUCCAAGUCCUGUGCUACACAUCGUAUGUACCGAAUCGGGAGGGUUUUUUUGGGUGGGAAAGUAUUAUGUUACGCCGUUCGGAUCUGCACUUCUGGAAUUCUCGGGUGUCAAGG,0.452
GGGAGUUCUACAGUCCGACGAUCCACAGACAACACGCACCCACACAGACACACAGGGAAGGGGUUGGGAUGGGGACAGGGUGCACAGCAGGGCGGGGUAGGACCCCAGCCCCUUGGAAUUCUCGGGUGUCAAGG,0.0276
